Experimental data gathered from unrelated publications.
Values joined by “and” are separate records of one study, mostly repeats; a detail may differ. Numbers after ± are the reported error.
MAL12: Alpha-glucosidase MAL12 (MAL12, Saccharomyces cerevisiae S288c, UniProt P53341)
Quinone reductase 2: Quinone reductase 2 (Mesocricetus auratus, UniProt A0ABM2YAB8)
BCHE: Cholinesterase (BCHE, Homo sapiens, UniProt P06276)

| Compound | tested on | test | test system | setting | scale | measurement | value |
| --- | --- | --- | --- | --- | --- | --- | --- |
| FC(F)(F)c1cccc(Nc2nc(NCCOc3ccccc3)nc3[nH]cnc23)c1 | Mitogen-activated protein kinase 11 (MAPK11, Homo sapiens, UniProt Q15759) | Z'-LYTE or Adapta | – | 5 µM | – | inhibition | 3% |
| CN1C(=S)N(c2ccccc2)C(=O)/C1=C1/C(=O)N(C)c2ccc(Cl)cc21 | MAL12 | enzyme activity | – | 50 µM, together with: pNPG | – | inhibition | 21.9% |
| COc1cc2c(Oc3ccc4[nH]c(C)cc4c3F)ccnc2cc1OCC1(N)CC1 | – | – | paediatric recurrent refractory sarcoma | 8 mg | – | grade 1 or 2 Thrombocytopenia | 0% |
| O=C(Nc1cccnn1)N1CCN([C@@H]2CCOc3cc(C(F)(F)F)ccc32)CC1 | Quinone reductase 2 | binding | – | 20 µM, MT3 (ML-2) site | – | inhibition | 33% |
| Cc1ncc(C)n2nc(/C=C/c3nc(N4CCCC4)cc(N4CCOCC4)n3)nc12 | Quinone reductase 2 | radioligand binding | – | 10 µM | – | inhibition | 34% |
| CC(C)(C)OC(=O)N1CCN(C(=O)n2cc(-c3ccc(OC(F)(F)F)cc3)nn2)C(Cc2ccccc2)C1 (stereo not shown) | Diacylglycerol lipase-beta (Mus musculus, UniProt Q91WC9) | enzyme activity | N2a membrane proteome | 30 nM | – | inhibition | 88% |
| CN1CCN(c2cc(-c3ccncc3)c(-c3ccc4ccccc4c3)nn2)CC1 | C-X-C chemokine receptor type 3 (CXCR3, Homo sapiens, UniProt P49682) | antagonist, FLIPR | – | 10 µM | – | inhibition | 2.6% |
| Cn1cccc1-c1cccnc1 | Histamine H1 receptor (HRH1, Homo sapiens, UniProt P35367) | binding | – | 50 µM | – | inhibition | -1.93% |
| CC(C)N1CCC[C@H]1CNC(=O)c1cn(C2CCCC2)c(=O)c2c1c1ccccc1n2C | L-type calcium channel benzothiazepine site, rat | radioligand binding | – | 10 µM | – | inhibition | 41% |
| O=C(O[C@@H]1Cc2c(O)cc(O)cc2O[C@@H]1c1cc(=O)c(O)c2c(O)c(O)cc([C@H]3Oc4cc(O)cc(O)c4C[C@H]3O)c2c1)c1cc(O)c(O)c(O)c1 | Protein disulfide-isomerase, a' domain (P4HB, Homo sapiens, UniProt P07237) | di-eosin-GSSG reductase activity | isolated a' domain | 20 µM | – | inhibition | inhibited |
| O=C(Nc1cccnn1)N1CCC(=Cc2cccc(Oc3ccc(C(F)(F)F)cn3)c2)CC1 | Carnitine O-palmitoyltransferase 1, liver isoform (Rattus norvegicus, UniProt P32198) | enzyme activity | – | concentration not given | – | inhibition | 6% and 1% |
| O=C1N=C(N2CCCCN2)S/C1=C\c1ccc(F)cc1O | rat benzodiazepine site | radioligand binding | rat cerebral cortex | 10 µM, together with: [3H]flunitrazepam | – | inhibition | < 10% |
| O=C(c1ccc(Cl)cc1)N1CCN2C(=O)N(OC(=O)N3CCOc4ccccc43)C(=O)C2C1 (stereo not shown) | S-formylglutathione hydrolase (Homo sapiens, UniProt P10768) | enzyme activity, inhibitor, MS-based ABPP | SW-620 in situ | 10 µM, 2 h, 37 °C | baseline: compound over DMSO, lower = stronger inhibition | median ratio | 1.01 |
| O=C(N1CCC2(CC1)C[C@@H](CN1CCCCS1(=O)=O)CCO2)C1(c2ccccc2)CCCC1 | ATP-dependent RNA helicase DDX3X (DDX3X, Homo sapiens, UniProt O00571) | ATPase activity | – | 50 µM | – | inhibition | 30% |
| O=C(O)C[C@H](NC(=O)[C@H](CC(=O)O)NC(=O)[C@H](CC(=O)O)NC(=O)[C@H](CC(=O)O)NC(=O)[C@H](CC(=O)O)NC(=O)[C@H](CC(=O)O)NC(=O)[C@H](CC(=O)O)NC(=O)[C@H](CC(=O)O)NC(=O)[C@H](CC(=O)O)NC(=O)[C@H](CC(=O)O)NC(=O)[C@H](CC(=O)O)NC(=O)[C@H](CCCCNC(=O)c1ccc(C(=O)NCCOCCOB2BBBBBB3BBBB3B2)cc1)NC(=O)CN1CCN(CC(=O)O)CCN(CC(=O)O)CCN(CC(=O)O)CC1)C(=O)O [gallium-67 labelled] | – | gamma counting | ddY mouse, male, 6 weeks old, brain | intravenous, 37 kBq, 10 min | – | tissue uptake | 0.11 %ID/g |
| COCc1c(-c2cc3cc(C)cc(OC)c3s2)c2c(N)ncnn2c1CN1CCNC(=O)C1 | leukotriene C4 synthase | enzyme activity | – | 10 µM | – | inhibition | 1% |
| O=C(N/N=C/c1ccccc1O)c1cnccn1 | Gag-Pol polyprotein, integrase (gag-pol, Human immunodeficiency virus 1, UniProt P12497) | processing, 3', and strand transfer, inhibitor | HIV-1 | 100 µM | – | inhibition | no inhibition |
| COc1ccc(N2C(=O)N(c3c(C)cccc3Cl)Cc3cnc(Nc4ccc(C5CCN(C)CC5)cc4OC)nc32)nc1 | Activated CDC42 kinase 1 (TNK2, Homo sapiens, UniProt Q07912) | kinase activity | – | 0.5 µM | – | inhibition | 98% |
| CC[C@H](C)[C@H](NC(=O)[C@@H](NC(=O)[C@H](N)Cc1ccccc1)C(C)C)C(=O)N[C@@H](C)C(N)=O | Amyloid-beta precursor protein (APP, Homo sapiens, UniProt P05067) | amyloid-beta aggregation, thioflavin T fluorescence | – | 2.0 µM, 168 h, together with: 2 µM amyloid-beta | – | inhibition | 65.4% |
| CCc1ccc(N2C(=O)/C(=C3/C(=O)N(C)c4ccc(Cl)cc43)NC2=S)cc1 | MAL12 | enzyme activity | – | 100 µM, together with: pNPG | – | inhibition | 41.8% and 42.2% |

| Compound | tested on | test | test system | setting | scale | measurement | value |
| --- | --- | --- | --- | --- | --- | --- | --- |
| CN(C(=O)n1cnc(-c2ccc[n+]([O-])c2)c1)C1CCCCC1 | D(3) dopamine receptor (DRD3, Homo sapiens, UniProt P35462) | radioligand binding | – | 50 µM, together with: [3H]spiperone | – | inhibition | 3% |
| CC(C)CC(=O)OC[C@H]1O[C@@](C#N)(c2ccc3c(N)ncnn23)[C@H](O)[C@@H]1O | Glutamate receptor ionotropic, NMDA 1 (Grin1, Rattus norvegicus, UniProt P35439) | radioligand binding | – | 20 µM, rat | – | inhibition | 2% |
| CN(N=O)c1ccc(O)c(O)c1 | Coagulation factor XIII A chain (F13A1, Homo sapiens, UniProt P00488) | crosslinking activity | – | 15 µM, without DTT | – | inhibition | inhibited |
| CN1CCN(c2nc(N)c3ccccc3n2)CC1 | Neuronal acetylcholine receptor; alpha4/beta2 (Homo sapiens, UniProt P17787+P43681) | radioligand binding, radioligand competition binding | – | 0.1 µM, mean of two | baseline: control specific binding | inhibition | 1.9% |
| COc1cc(Nc2ncc(F)c(Nc3ccc4c(n3)NC(=O)C(C)(C)O4)n2)cc(OC)c1OC | Calcium/calmodulin-dependent protein kinase type II subunit alpha (CAMK2A, Homo sapiens, UniProt Q9UQM7) | KINOMEscan | – | 10 µM | – | inhibition | 62% |
| C[C@H]1CN(c2n[nH]c3nc(N[C@H]4CC[C@H](NS(=O)(=O)CCC(F)(F)F)CC4)ncc23)CCO1 | Structural maintenance of chromosomes protein 2 (Homo sapiens, UniProt O95347) | Kinobeads competition, refers to: SMC2 | – | 20 µM, unit not given | baseline: vehicle | remaining binding | 1.23 |
| NNCc1c[nH]c2ccccc12 | S-adenosylmethionine decarboxylase proenzyme (AMD1, Homo sapiens, UniProt P17707) | probe labelling, inhibitor, gel-based competitive ABPP | transfected HEK-293T cell lysate | 1 µM | – | inhibition | no inhibition |
| CO[C@H]1C[C@@H]2CC[C@@H](C)[C@@](O)(O2)C(=O)C(=O)N2CCCC[C@H]2C(=O)O[C@H]([C@H](C)C[C@@H]2CC[C@@H](OC(=O)NCCOCCOCCOCCOCCOCCOCCOCCOCCC(=O)N3CCc4cc(Cn5nc(-c6ccc7oc(N)nc7c6)c6c(N)ncnc65)ccc4C3)[C@H](OC)C2)C[C@@H](O)[C@H](C)/C=C(\C)[C@@H](O)[C@@H](OC)C(=O)[C@H](C)C[C@H](C)/C=C/C=C/C=C/1C | – | – | patients with advanced solid tumours | intravenous, 12 mg weekly, grade 3 or higher | – | decreased appetite incidence | 8.3% |
| COc1ccc2c3c([nH]c2c1)CCN(C)CC3 | Neuronal acetylcholine receptor subunit alpha-7 (Chrna7, Rattus norvegicus, UniProt Q05941) | ACh-evoked current, antagonist, two-electrode voltage clamp | Xenopus laevis oocytes | 10 µM, holding potential -40 mV, together with: 100 µM acetylcholine | – | inhibition | 30.6 ± 6.4% |
| C[C@@H](C1=C(CCN(C)C)Cc2ccccc21)c1ccccn1.O=C(O)/C=C\C(=O)O | BCHE | inhibitor | – | – | – | efficacy | -97.3 ± 6.58% |
| Oc1ccc2c3c1O[C@H]1[C@@H](O)CC[C@@]4(O)[C@@H](C2)N(CC2CCC2)CC[C@]314 | Probable G-protein coupled receptor 150 (GPR150, Homo sapiens, UniProt Q8NGU9) | β-arrestin recruitment, TANGO luminescence, refers to: GPR150 | – | concentration not given | baseline: basal luminescence | log2 fold change | -0.13 |
| CC[C@H](C)[C@H](NC(=O)[C@H](Cc1ccccc1)NC(=O)[C@H](CCC(=O)O)NC(=O)[C@H](CCCNC(=N)N)NC(=O)[C@H](C)NC(=O)[C@H](C)NC(=O)[C@H](CCC(N)=O)NC(=O)[C@H](CCC(=O)O)NC(=O)[C@H](CCC(=O)O)NC(=O)[C@H](CC(C)C)NC(=O)[C@H](Cc1ccc(O)cc1)NC(=O)[C@H](CO)NC(=O)[C@H](CO)NC(=O)[C@@H](NC(=O)[C@H](CC(=O)O)NC(=O)[C@H](CO)NC(=O)[C@@H](NC(=O)[C@H](Cc1ccccc1)NC(=O)[C@@H](NC(=O)CNC(=O)[C@H](CCC(=O)O)NC(=O)[C@H](C)NC(=O)CCc1c[nH]cn1)[C@@H](C)O)[C@@H](C)O)C(C)C)C(=O)N[C@@H](C)C(=O)N[C@@H](Cc1c[nH]c2ccccc12)C(=O)N[C@@H](CC(C)C)C(=O)N[C@H](C(=O)N[C@@H](CCCNC(=N)N)C(=O)NCC(=O)N[C@@H](CCCNC(=N)N)C(=O)N[C@@H](CCCCNC(=O)COCCOCCNC(=O)COCCOCCNC(=O)CC[C@H](NC(=O)CCCCCCCCCCCCCCCCC(=O)O)C(=O)O)C(=O)NCC(=O)NCC(=O)N[C@@H](CO)C(=O)N[C@@H](CCCCNc1c(NCCCCCN(O)C(=O)CCC(=O)NCCCCCN(O)C(=O)CCC(=O)NCCCCCN(O)C(C)=O)c(=O)c1=O)C(=O)O)C(C)C [zirconium-89 labelled] | – | gamma counting | rat, skin of neck | intravenous, 3 nmol/kg, 168 h | – | tissue uptake | 0.17 %ID/g |
| Br.CN1CCC[C@@H]1Cc1c[nH]c2ccc(CCS(=O)(=O)c3ccccc3)cc12 | BCHE | – | – | concentration not given, Triton | – | efficacy | -76.3 ± 22.7% |
| CCc1cc(=O)[nH]c(-n2nc(C)cc2NC(=O)c2ccc(C)c(C)c2)n1 | Rho-associated protein kinase 1 (ROCK1, Homo sapiens, UniProt Q13464) | radiometric kinase | – | 10 µM | – | inhibition | no inhibition |
| CC[C@H](C)[C@@H]1NC(=O)[C@@H]2CCCN2C(=O)[C@H](CC(C)C)NC(=O)[C@H](CC(C)C)NC(=O)CNC(=O)[C@@H](NC(=O)[C@@H](NC(=O)[C@H](CC(=O)O)NC(=O)CNC(=O)[C@@H](NC(=O)[C@H](C)NC(=O)CNC(=O)[C@H](CCCCN)NC(=O)[C@H](CC(C)C)NC(=O)[C@H](CC(C)C)NC(=O)[C@H](CCCCN)NC(=O)CNC(=O)[C@@H](NC(=O)[C@@H](N)CC(C)C)C(C)C)C(C)C)C(C)C)CSSC[C@@H](C(=O)O)NC1=O | – | RNA-seq, refers to: Vasp mRNA | mouse traumatic brain injury, frontal cortex and hippocampus | dose not given | baseline: TBI plus compound vs TBI | log2 fold change | -2.44 |
| NCCc1c[nH]c2ccc(O)cc12 | 5-hydroxytryptamine receptor 1A (Htr1a, Rattus norvegicus, UniProt P19327) | radioligand binding | rat | 10 µM | – | inhibition | 99.5% |
| CN(CCN1CCC(OC(=O)Nc2ccccc2-c2ccccc2)CC1)C(=O)c1ccc(CN2CCC(C(N)=O)CC2)cc1 | rat P2X receptor | radioligand binding | – | 1 µM, together with: [3H]α,β-MeATP 3.0 nM | – | inhibition | 14% |
| CC1(C(=O)O)C2CCC(O2)C1(C)C(=O)O (stereo not shown) | Plasmodium falciparum | – | HB3 | – | – | IC50 | 2510 nM |
| O=C(Nc1cnccc1Cl)N1CCN(Cc2ccc3c(c2)OC(F)(F)O3)CC1 | Prostaglandin E2 receptor EP4 subtype (PTGER4, Homo sapiens, UniProt P35408) | binding, refers to: EP4 | – | 10 µM, human, together with: [3H]prostaglandin E2 | – | inhibition | 2% |
| O=c1ccc2ccccc2o1 | cGMP-inhibited 3',5'-cyclic phosphodiesterase 3A (PDE3A, Homo sapiens, UniProt Q14432) | enzyme activity | – | 10 µM, SafetyScreen44 | – | inhibition | 11.5% |
